Measurements collected from several papers.
Each line is one published result; not all experiments were run side by side.
Target: Protein kinase C iota type (PRKCI, Homo sapiens, UniProt P41743)
Sequence (P41743 1-596, as in one of the studies): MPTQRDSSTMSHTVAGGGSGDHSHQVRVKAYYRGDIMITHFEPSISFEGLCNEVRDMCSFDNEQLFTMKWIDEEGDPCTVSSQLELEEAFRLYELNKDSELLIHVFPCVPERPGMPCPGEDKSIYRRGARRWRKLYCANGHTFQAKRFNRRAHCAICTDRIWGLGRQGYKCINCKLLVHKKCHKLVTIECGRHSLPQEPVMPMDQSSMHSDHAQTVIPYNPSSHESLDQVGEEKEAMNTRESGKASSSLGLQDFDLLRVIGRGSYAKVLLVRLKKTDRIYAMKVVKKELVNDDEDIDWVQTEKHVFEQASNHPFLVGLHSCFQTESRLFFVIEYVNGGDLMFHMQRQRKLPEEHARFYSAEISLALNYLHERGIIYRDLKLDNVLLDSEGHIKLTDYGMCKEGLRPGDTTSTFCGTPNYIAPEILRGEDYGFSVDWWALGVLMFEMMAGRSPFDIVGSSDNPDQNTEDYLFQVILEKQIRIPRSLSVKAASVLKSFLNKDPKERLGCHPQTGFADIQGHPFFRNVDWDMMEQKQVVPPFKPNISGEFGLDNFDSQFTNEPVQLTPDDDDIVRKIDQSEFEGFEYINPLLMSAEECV

Structure (SMILES) | assay | setting | how to read | quantity | result
Nc1ncc2c(n1)-c1c([nH]c3ccc(C4=CCOCC4)cc13)CCC2 | binding, competition with immobilised ligand | 1 µM |  | remaining binding | 97%
COc1cc(Nc2nc(C)cc(-c3cnn4nc(OC)ccc34)n2)cc(C(F)(F)F)c1 | inhibitor | 1 µM | reference: control | remaining activity | 79%
COc1c(OCCCN2CCOCC2)ccc2c1N=C(NC(=O)c1cnc(N)nc1)N1CCN=C21 | kinase activity, inhibitor | 1 µM | reference: untreated control | remaining activity | 114%
COc1ccc(NC(=O)Nc2ccc3c(c2)C(=O)N(C(C)CO)CC(C)C(CN(C)Cc2ccc4c(c2)OCO4)O3)cc1 (stereo not shown) | kinase activity, KinaseProfiler | 0.03 µM, species human | reference: control | remaining activity | 99%
CCN1CCN(Cc2ccc(C(=O)Nc3ccc(C)c(NCc4cnc5[nH]ccc5c4OC)c3)cc2C(F)(F)F)CC1 | binding, competition with immobilised ligand | 1 µM |  | remaining binding | 70%
NC(=O)C[C@H]1CCc2sc3ncnc(O[C@H]4CC[C@H](N5CCOCC5)CC4)c3c21 | enzyme activity, inhibitor | 10 µM |  | inhibition | 3%
C=CC(=O)Nc1cccc(-c2cnc3[nH]cc(C(=O)NC(C)(C)C)c3n2)c1 | enzyme activity, inhibitor | 0.1 µM |  | inhibition | 1%
CN1CC[C@@H](COc2cnc(C#N)cc2-c2ccn3nc(NC(=O)C4CC4)cc3c2)C1 | enzyme activity, inhibitor | 1 µM |  | inhibition | -1%
Cc1ccc(-c2c(/C=C(\C#N)C(=O)NC(C)C)n(CCCO)c3ncnc(N)c23)cc1 | cell-free assay, competition with immobilised ligand | 1 µM |  | remaining binding | 72%
C=CC(=O)N1CCc2ccc(-n3c(=O)ccc4cnc5ccc(-c6cnn(C)c6)cc5c43)cc21 | KINOMEscan | 1 µM | reference: DMSO control | remaining binding | 97%
Cc1nc2c(F)cc(-c3nc(Nc4ccc(CNC(=O)CCCCCCC(=O)NO)cc4)ncc3F)cc2n1C(C)C | enzyme activity, inhibitor | 1 µM |  | inhibition | 28%
Cc1cccc(O[C@H]2CCC[C@@H](C(C)CNCc3ccncc3)C2)c1 (relative stereo) | enzyme activity | 1 µM |  | inhibition | -3%
CNC(=O)C1CCN(c2cc(C)c(F)cc2NC(=O)c2ccc(-c3cc(O)ccc3C)c(C)c2)CC1 | binding, competition with immobilised ligand | 1 µM |  | remaining binding | 84%
O=c1c(-c2ccc(Cl)c(CN3CCOCC3)c2)coc2cc(O)ccc12 | enzyme activity, inhibitor | 1 µM |  | remaining activity | 98%
Nc1ncc(-c2cc(-c3cnn(CC(F)(F)F)c3)ncc2F)nc1C(=O)NC1CNCC(F)C1 (stereo not shown) | enzyme activity | 1 µM | reference: DMSO control | remaining activity | 91.2%
CNC1C[S+]2CC[S+]3CC[S+](C1)[Ru-4]321([N]=C=S)[n]2c3ccc(OC)cc3c3c4c(c5cc(F)c[n+]1c5c32)C(=O)NC4=O (stereo not shown) | KinomeScan | 0.1 µM | reference: untreated | remaining binding | 100%

For quick reference, copied from above:
Structure (SMILES) | assay | setting | how to read | quantity | result
COc1cc(Nc2nc(C)cc(-c3cnn4nc(OC)ccc34)n2)cc(C(F)(F)F)c1 | inhibitor | 1 µM | reference: control | remaining activity | 79%
